# Published values from different studies.
# Values joined by “and” are separate records of one study, mostly repeats; a detail may differ. ± marks the error that the study gave.
SMILES,assay,test system,conditions,how to read,endpoint,result
Cc1[nH]nc2c1N=C(c1ccccc1Cl)c1cnc(N3CCOCC3)cc1N2,,"mouse sample D TNBC PDX, LAR subtype","oral, 15 mg/kg, 5 days per week",,tumour growth inhibition,97%
Nc1ncc(-c2ccc([C@H]3[C@@H](F)[C@@H](F)C[C@@H](F)[C@H]3F)cc2)cn1,liver microsome stability,rat liver microsomes,1 µM,,hepatic clearance,6.1 mL/min/kg
COC1OC(C)C(OS(=O)(=O)O)C(OC2OC(C)C(OS(=O)(=O)O)C(OC3OC(C)C(OS(=O)(=O)O)C(OC4OC(C)C(OS(=O)(=O)O)C(OC5OC(C)C(OS(=O)(=O)O)C(OC6OC(C)C(OS(=O)(=O)O)C(OC7OC(C)C(OS(=O)(=O)O)C(OC8OC(C)C(OS(=O)(=O)O)C(OS(=O)(=O)O)C8OS(=O)(=O)O)C7OS(=O)(=O)O)C6OS(=O)(=O)O)C5OS(=O)(=O)O)C4OS(=O)(=O)O)C3OS(=O)(=O)O)C2OS(=O)(=O)O)C1OS(=O)(=O)O (centres unmarked),,human plasma,64 µg/mL,,activated partial thromboplastin time,291 s and 324 s and 310 s
COCC1CN(C2CCN(c3cc(OC)c(Nc4ncc(Br)c(Nc5ccc6c(c5P(C)(C)=O)OCCO6)n4)cc3C)CC2)C1,RECIST 1.1,advanced EGFR-mutant NSCLC patients,30 mg once daily,,disease control rate,33.3%
COC1CN([C@H]2CC[C@H]([C@@]3(C)Oc4c(Cl)cc(C(=O)NCc5c(SC)cc(C)[nH]c5=O)c(C)c4O3)CC2)C1,"RNA-seq, item: FRMD6","human, whole blood","dose not given, 24 h",reference: pretreatment baseline,log2 fold change,2.18
COc1cc(O)ccc1CCC(c1ccc(O)cc1)c1cc2c(c(C)c1O)OC(c1ccc(O)cc1)CC2 (mixture of isomers),,human blood,"3 µM, with: A23187",,TXB2 level,561 ± 51 pg/mL
CNCc1ccc(-c2cc(=O)c3ccc4[nH]c(C(F)(F)F)nc4c3o2)cc1,immunohistochemistry,"3xTg mice, hippocampus","dose not given, 3 months",,Aβ aggregation,decreased
COC1OC(C)C(OC2OC(C)C(O)C(OC3OC(C)C(OC4OC(C)C(O)C(OC5OC(C)C(OC6OC(C)C(O)C(OS(=O)(=O)O)C6OS(=O)(=O)O)C(OS(=O)(=O)O)C5OS(=O)(=O)O)C4OS(=O)(=O)O)C(OS(=O)(=O)O)C3OS(=O)(=O)O)C2OS(=O)(=O)O)C(OS(=O)(=O)O)C1OS(=O)(=O)O (centres unmarked),,human plasma,16 µg/mL,,activated partial thromboplastin time,46.8 s and 46.5 s and 45.8 s
NC[C@@H](C(=O)Nc1ccc(-c2cn[nH]c2)cc1)c1ccccc1,tonometry,"NZW rabbit, magnetic bead-induced ocular hypertension","ocular, 0.03%, 6 h",,IOP,31.4 mmHg
COC1OC(C)C(OC2OC(C)C(OS(=O)(=O)O)C(OC3OC(C)C(OC4OC(C)C(OS(=O)(=O)O)C(OC5OC(C)C(OC6OC(C)C(OS(=O)(=O)O)C(OC7OC(C)C(OC8OC(C)C(OS(=O)(=O)O)C(OC9OC(C)C(OS(=O)(=O)O)C(OS(=O)(=O)O)C9O)C8O)C(OS(=O)(=O)O)C7O)C6O)C(OS(=O)(=O)O)C5O)C4O)C(OS(=O)(=O)O)C3O)C2O)C(OS(=O)(=O)O)C1O (centres unmarked),,human plasma,128 µg/mL,,activated partial thromboplastin time,41.5 ± 0.3 s
c1cc(C2CCCCC2)ccc1-c1ccc(N2CCCC2)nc1,hepatocyte stability,cryopreserved human hepatocytes,1 µM,,hepatic clearance,12 mL/min/kg
